# Measured values gathered from unrelated publications.
# Compare with care: the assays were run in different laboratories.
# KIT D816H: Mast/stem cell growth factor receptor Kit (KIT, Homo sapiens, UniProt P10721, D816H)
# KIT V559D: Mast/stem cell growth factor receptor Kit (KIT, Homo sapiens, UniProt P10721, V559D)
# KIT: Mast/stem cell growth factor receptor Kit (KIT, Homo sapiens, UniProt P10721)
# KIT T670I/V559D: Mast/stem cell growth factor receptor Kit (KIT, Homo sapiens, UniProt P10721, T670I/V559D)
SMILES,target,read-out,technique,concentration,baseline,remaining binding [%]
Cc1cnc2nc1Nc1cccc(c1)COC/C=C/COCc1cc(ccc1OCCN1CCOCC1)N2,KIT D816H,binding,,0.1 µM,,69
C=CC(=O)N1CCc2ccc(-n3c(=O)ccc4cnc5ccc(-c6cnn(C)c6)cc5c43)cc21,KIT V559D,,KINOMEscan,1 µM,DMSO control,68
C=CC(=O)N1CCCC(n2c(=O)c3ncccc3n(Cc3ccc(Oc4ccccc4)cc3)c2=O)C1 (stereo not drawn),KIT V559D,cell-free assay,competition with immobilised ligand,1 µM,,100
COc1c(Cl)cccc1Nc1c(-c2ccncc2C#C[C@@]2(C)CCCN2C(=O)/C=C/CN(C)C)[nH]c2c1C(=O)NCC2,KIT D816H,binding,competition with immobilised ligand,3 µM,,83
CC(=O)N1c2ccc(-c3ccc(CNC(=O)c4cn5cc(-c6cnc(N)nc6)nc(N6CCOCC6)c5n4)cc3)cc2CC[C@@H]1C,KIT,,KINOMEscan,10 µM,,82
CC(C)=CC1OC(C)(C)C2C=C3C(=O)C(Cl)=CC(O)C3C3C(O)C4OC4C(=O)C132 (stereo not drawn),KIT,cell-free assay,competition with immobilised ligand,10 µM,,87
CNC(=O)C1CCN(c2cc(C)c(F)cc2NC(=O)c2ccc(-c3cc(O)ccc3C)c(C)c2)CC1,"Mast/stem cell growth factor receptor Kit, autoinhibited (KIT, Homo sapiens, UniProt P10721)",binding,competition with immobilised ligand,1 µM,,65
Cc1cc(-c2n[nH]cc2C(=O)Nc2ccc(C)c(F)c2)ccn1,KIT,cell-free assay,competition with immobilised ligand,10 µM,,20
CNS(=O)(=O)Nc1nccc(Cc2c(C)c3ccc(Oc4ncccc4F)cc3oc2=O)c1F,KIT,binding,competition with immobilised ligand,10 µM,,95
CNC1C[S+]2CC[S+]3CC[S+](C1)[Ru-4]321([N]=C=S)[n]2c3ccc(OC)cc3c3c4c(c5cc(F)c[n+]1c5c32)C(=O)NC4=O (stereo not drawn),KIT T670I/V559D,,KinomeScan,0.1 µM,untreated,86
Nc1ncc2c(n1)-c1c([nH]c3ccc(C4=CCOCC4)cc13)CCC2,KIT V559D,binding,competition with immobilised ligand,1 µM,,92
CN1CCN(Cc2ccc(NC(=O)c3cccc(C#Cc4cnc(N)c5ncccc45)c3)cc2C(F)(F)F)CC1,"KIT (Homo sapiens, UniProt P10721, D816V)",cell-free assay,competition with immobilised ligand,50 nM,,24
CCN1CCN(Cc2ccc(C(=O)Nc3ccc(C)c(NCc4cnc5[nH]ccc5c4OC)c3)cc2C(F)(F)F)CC1,KIT T670I/V559D,binding,competition with immobilised ligand,1 µM,,2.8
Cc1ccc(-c2c(/C=C(\C#N)C(=O)NC(C)C)n(CCCO)c3ncnc(N)c23)cc1,"KIT (Homo sapiens, UniProt P10721, A829P)",cell-free assay,competition with immobilised ligand,1 µM,,70
CCN1CCN(Cc2ccc(NC(=O)c3ccc(C)c(NC(=O)c4cncc(-c5cccs5)c4)c3)cc2C(F)(F)F)CC1,KIT T670I/V559D,binding,competition with immobilised ligand,1 µM,,1
